Assay results from different studies.
Lines come from different studies, so protocols differ. “And” joins repeats or separate records; there may be more than shown. No end group written: not given here.
B1: bicyclic; chain AATCHCRRSCYSTEYSYGTCTVMGINHRFCCL (also: bicyclic or more (positions not given here))

Molecule	target or system	assay	test system	setting	how to read	quantity	result
GSGAGIATEV	human MAGI1-2/6 PDZ construct (MBP fusion)	surface plasmon resonance	peptide	concentration not given	higher = stronger binding	normalised SPR binding response	3.7 normalised RU
colistin	Pseudomonas aeruginosa		clinical isolate RKI 470/12			MIC	≤ 1 mg/L
Peginesatide	UT7/EPO	RT-qPCR, measured: CISH		concentration not given, 90 min, normalized to HPRT1	reference: vehicle	mRNA level	15.9 fold
Rilpivirine docusate			lipid vehicles	up to		kinetic solubility	~500 mg/g
GSGAGKETEC	human SCRIB PDZ3-4 tandem (MBP fusion)	automated holdup	peptide, crude extract	concentration not given, corrected by standard peak, unit not given	reference: biotin control resin, higher = stronger binding	binding intensity	0.785
Teicoplanin		ultrafiltration	human serum	time not given, low QC		ultrafiltration recovery	94.6%
Polymyxin B		untargeted LC-MS metabolomics, measured: L-lysine	Sprague-Dawley rat, right cerebral cortex	intracerebroventricular, 0.75 mg/kg, 1 h	reference: NaCl control	log2 fold change	-1.4
caspofungin			adult ICU patients, mITT, serum	dose not given, Baseline		potassium	3.9 mmol/L
regorafenib N-β-glucuronide			mouse plasma	75 ng/mL, 6 months, -80 °C		long-term stability accuracy	101%
LVHYTHCGSLGV	Epstein-Barr virus		peptide, EBV-infected humanized B-NDG mice	20 mg/kg, day 14		body weight	24.4 g and 22.3 g and 22.8 g
B1		sedimentation velocity ultracentrifugation	10 mM Tris-maleate	50 µM, pH 6.4, 20 °C		sedimentation coefficient s20,w	0.762 S
FNA / CGLSGLGVA-NH2 ([18F]FNA-labelled, C-amide)		gamma counting	peptide, glioblastoma mice, brown adipose tissue	60 min		tissue uptake	0.25 %ID/g

For quick reference, copied from above:
Molecule	target or system	assay	test system	setting	how to read	quantity	result
Teicoplanin		ultrafiltration	human serum	time not given, low QC		ultrafiltration recovery	94.6%
Polymyxin B		untargeted LC-MS metabolomics, measured: L-lysine	Sprague-Dawley rat, right cerebral cortex	intracerebroventricular, 0.75 mg/kg, 1 h	reference: NaCl control	log2 fold change	-1.4
